Assay results pooled from the literature.
Compare with care: the assays were run in different laboratories. Numbers after ± are the reported error.
KCNH2: Voltage-gated inwardly rectifying potassium channel KCNH2 (KCNH2, Homo sapiens, UniProt Q12809)

Amino acid sequences for entries named in this document (tags omitted). Residues count along the entry.
UniProt Q12809, whole entry: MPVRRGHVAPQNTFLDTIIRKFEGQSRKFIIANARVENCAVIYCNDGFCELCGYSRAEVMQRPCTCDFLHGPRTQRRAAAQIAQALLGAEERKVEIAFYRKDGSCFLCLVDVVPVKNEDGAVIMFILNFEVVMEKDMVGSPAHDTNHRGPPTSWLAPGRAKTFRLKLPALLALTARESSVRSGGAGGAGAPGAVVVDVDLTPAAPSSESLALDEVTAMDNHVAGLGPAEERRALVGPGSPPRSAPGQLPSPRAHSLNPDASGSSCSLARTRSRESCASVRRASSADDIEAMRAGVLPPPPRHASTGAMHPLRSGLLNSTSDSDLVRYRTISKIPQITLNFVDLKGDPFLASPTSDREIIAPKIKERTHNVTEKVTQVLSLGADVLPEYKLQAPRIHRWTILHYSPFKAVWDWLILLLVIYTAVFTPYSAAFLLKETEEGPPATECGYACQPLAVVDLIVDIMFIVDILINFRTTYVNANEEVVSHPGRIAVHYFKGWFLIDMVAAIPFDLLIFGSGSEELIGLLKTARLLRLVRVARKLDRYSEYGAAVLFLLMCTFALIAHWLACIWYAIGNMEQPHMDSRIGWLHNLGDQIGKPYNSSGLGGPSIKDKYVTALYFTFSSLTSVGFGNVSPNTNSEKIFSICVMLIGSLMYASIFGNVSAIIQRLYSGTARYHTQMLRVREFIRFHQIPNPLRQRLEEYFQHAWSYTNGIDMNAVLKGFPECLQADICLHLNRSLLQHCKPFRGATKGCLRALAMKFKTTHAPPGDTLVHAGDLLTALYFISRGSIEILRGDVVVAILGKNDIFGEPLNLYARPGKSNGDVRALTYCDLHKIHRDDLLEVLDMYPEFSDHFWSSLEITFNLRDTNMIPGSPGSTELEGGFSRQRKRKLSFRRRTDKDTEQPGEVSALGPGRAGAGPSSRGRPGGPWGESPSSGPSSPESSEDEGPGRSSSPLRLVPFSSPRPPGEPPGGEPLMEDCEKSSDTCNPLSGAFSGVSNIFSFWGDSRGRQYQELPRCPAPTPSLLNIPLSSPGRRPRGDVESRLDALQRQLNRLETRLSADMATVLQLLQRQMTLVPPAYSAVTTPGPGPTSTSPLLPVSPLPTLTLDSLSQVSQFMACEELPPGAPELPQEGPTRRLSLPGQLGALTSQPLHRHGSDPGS
UniProt P04798, whole entry: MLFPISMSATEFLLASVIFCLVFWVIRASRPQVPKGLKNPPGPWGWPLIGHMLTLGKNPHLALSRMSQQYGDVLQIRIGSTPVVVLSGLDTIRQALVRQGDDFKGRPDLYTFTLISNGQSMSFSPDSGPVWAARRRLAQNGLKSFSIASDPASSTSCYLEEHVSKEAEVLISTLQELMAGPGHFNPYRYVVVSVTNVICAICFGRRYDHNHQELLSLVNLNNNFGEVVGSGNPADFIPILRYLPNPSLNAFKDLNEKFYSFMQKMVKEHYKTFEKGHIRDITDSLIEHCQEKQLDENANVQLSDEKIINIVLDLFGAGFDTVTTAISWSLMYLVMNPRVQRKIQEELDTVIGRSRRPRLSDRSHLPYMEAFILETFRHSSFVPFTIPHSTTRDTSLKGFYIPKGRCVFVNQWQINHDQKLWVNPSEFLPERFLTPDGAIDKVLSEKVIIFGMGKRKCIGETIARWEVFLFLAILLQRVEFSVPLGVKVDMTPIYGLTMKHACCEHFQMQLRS
UniProt P10636, whole entry, looked up: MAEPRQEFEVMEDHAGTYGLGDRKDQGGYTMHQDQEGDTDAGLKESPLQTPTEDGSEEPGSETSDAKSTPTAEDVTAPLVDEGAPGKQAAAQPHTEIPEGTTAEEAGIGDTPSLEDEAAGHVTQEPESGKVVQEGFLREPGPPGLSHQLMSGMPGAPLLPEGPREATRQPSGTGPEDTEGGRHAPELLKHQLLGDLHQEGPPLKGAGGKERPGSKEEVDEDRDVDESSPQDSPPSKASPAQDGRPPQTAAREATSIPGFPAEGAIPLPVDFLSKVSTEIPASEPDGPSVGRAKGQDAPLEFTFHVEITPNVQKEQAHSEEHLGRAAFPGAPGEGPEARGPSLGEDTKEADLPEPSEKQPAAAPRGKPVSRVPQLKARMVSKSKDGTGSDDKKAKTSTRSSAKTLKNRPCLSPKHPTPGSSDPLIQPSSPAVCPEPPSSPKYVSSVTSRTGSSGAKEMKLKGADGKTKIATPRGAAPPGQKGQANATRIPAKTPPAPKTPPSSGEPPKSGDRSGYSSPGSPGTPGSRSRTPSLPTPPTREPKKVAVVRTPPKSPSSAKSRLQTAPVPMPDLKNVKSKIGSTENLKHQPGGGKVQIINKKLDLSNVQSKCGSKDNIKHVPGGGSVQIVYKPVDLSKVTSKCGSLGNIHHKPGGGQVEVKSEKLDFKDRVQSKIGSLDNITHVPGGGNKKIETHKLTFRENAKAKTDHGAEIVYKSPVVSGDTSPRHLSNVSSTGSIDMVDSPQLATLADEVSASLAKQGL
UniProt Q92831, whole entry: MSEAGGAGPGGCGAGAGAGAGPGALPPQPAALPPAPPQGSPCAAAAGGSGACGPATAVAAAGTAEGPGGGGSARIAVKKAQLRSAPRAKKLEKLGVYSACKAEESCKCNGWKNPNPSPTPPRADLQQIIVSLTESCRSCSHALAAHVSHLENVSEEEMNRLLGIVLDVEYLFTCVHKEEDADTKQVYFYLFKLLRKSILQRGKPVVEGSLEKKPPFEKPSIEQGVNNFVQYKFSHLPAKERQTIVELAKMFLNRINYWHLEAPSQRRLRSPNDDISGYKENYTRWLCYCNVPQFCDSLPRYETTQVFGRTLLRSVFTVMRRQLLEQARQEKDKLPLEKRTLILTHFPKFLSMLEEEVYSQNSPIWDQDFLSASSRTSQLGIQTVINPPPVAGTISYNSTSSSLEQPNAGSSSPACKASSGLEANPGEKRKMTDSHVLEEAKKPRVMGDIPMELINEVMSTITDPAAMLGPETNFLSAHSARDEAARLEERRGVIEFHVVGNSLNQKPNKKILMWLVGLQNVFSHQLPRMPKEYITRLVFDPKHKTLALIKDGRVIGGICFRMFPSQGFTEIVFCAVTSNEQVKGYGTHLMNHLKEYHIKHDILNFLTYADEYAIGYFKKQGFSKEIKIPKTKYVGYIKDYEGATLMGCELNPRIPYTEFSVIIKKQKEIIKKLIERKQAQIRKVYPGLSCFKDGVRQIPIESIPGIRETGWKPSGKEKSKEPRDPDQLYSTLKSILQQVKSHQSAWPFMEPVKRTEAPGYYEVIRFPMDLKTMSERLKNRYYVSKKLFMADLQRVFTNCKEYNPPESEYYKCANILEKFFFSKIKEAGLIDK
UniProt Q16539, whole entry: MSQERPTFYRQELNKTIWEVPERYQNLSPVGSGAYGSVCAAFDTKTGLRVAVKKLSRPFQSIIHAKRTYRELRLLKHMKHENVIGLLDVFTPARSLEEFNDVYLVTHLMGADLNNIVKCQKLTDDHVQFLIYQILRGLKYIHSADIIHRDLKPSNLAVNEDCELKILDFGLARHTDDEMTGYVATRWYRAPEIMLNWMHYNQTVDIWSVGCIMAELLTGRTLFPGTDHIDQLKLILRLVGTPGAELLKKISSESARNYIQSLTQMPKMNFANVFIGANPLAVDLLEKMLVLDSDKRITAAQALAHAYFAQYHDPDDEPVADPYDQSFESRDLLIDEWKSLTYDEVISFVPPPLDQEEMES
UniProt Q63380, 1-617: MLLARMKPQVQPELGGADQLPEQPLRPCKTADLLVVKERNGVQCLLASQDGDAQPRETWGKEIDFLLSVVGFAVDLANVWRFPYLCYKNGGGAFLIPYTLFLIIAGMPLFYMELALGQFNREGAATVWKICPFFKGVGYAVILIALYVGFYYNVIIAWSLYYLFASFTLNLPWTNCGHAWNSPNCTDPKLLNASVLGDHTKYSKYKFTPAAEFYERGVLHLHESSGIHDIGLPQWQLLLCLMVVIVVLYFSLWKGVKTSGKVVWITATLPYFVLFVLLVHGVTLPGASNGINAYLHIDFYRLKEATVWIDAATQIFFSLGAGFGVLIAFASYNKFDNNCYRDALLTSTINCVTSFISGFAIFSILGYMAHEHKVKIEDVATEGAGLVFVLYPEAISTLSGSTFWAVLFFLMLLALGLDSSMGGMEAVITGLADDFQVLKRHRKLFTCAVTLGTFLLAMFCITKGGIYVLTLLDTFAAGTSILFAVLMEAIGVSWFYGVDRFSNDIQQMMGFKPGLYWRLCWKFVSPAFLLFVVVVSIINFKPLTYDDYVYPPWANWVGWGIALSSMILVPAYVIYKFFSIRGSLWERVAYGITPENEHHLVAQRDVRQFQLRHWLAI
UniProt Q8N752, whole entry: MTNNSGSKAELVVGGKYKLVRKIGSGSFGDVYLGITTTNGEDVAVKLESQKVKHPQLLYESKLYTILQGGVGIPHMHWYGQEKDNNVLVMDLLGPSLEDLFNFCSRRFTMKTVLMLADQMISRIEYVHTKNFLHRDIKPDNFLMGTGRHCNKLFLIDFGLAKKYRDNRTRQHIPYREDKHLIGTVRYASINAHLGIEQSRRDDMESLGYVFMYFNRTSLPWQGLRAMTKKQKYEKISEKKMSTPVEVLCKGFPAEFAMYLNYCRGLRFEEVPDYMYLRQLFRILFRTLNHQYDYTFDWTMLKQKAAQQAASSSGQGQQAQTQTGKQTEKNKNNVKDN

C/C(=N\Nc1nc2ccccc2n1C)c1ccccn1
IC50 (KCNH2; potassium current, inhibitor, manual patch clamp): 3780 nM

Cc1cc(Cl)c2c(c1N)C(=O)c1ccccc1C2=O
IC50 (Cytochrome P450 1A1 (CYP1A1, Homo sapiens, UniProt P04798); enzyme activity, inhibitor; supersomes; direct inhibition): 400 nM

CCc1c(-c2ccccc2)nn2c(=O)cc(-c3cccc(C(=O)O)c3)[nH]c12
plasma level (mouse; 2 mg/kg, 10 h): not detected

COc1cc(CC(=O)NCC(NC(=O)C(CCCNC(=O)c2cccc(I)c2)NC(=O)C(Cc2ccc(C(F)(F)P(=O)(O)O)cc2)NC(=O)c2ccc(C)c(Br)c2)C(N)=O)ccc1O (stereo not shown)
Vdss (HPLC-MS/MS; mouse, plasma; intravenous, 5 mg/kg): 0.007 L

Fc1cc(-c2ccc3c(n2)[nH]c2ccncc23)ccn1 [isotope labelled]
specific binding (Microtubule-associated protein tau, paired helical filaments (MAPT, Homo sapiens, UniProt P10636); radioligand binding; PHF tau brain homogenate; 6.91 nM; higher = more binding): 6 a.u.

CC[C@@H]1C(=O)N(C)c2cnc(Nc3ccc(C(=O)NC4CCN(C)CC4)cc3OC)nc2N1C1CCCC1
delta Tm (Histone acetyltransferase KAT2B (KAT2B, Homo sapiens, UniProt Q92831); 10 µM): -0.12 ± 0.3 °C

CCN1CCN(Cc2ccc(NC(=O)c3ccc(C)c(Oc4ncnc5cc(OC)c(OC)cc45)c3)cc2C(F)(F)F)CC1
residual probe binding (Mitogen-activated protein kinase 14 (MAPK14, Homo sapiens, UniProt Q16539); KINOMEscan competition binding; 1.0 µM): 0%

CCCN1CCN(c2ccc3c(c2)C2CC3CCN2C(=O)OCc2ccccc2)CC1 (stereo not shown)
Ki (KCNH2; binding, radioligand binding): 695 nM

N=C(N)NCCc1ccc(OCCCF)c(Br)c1
heart to blood ratio (Transporter (Slc6a2, Rattus norvegicus, UniProt Q63380); healthy Wistar rat, heart; iv, 10 min, biodistribution): 8.7 ± 1.5

C[C@H]1CCCN1Cc1cc2cnc(NC(=O)c3ccc4c(cnn4C)c3)cc2[nH]1
colony formation (mouse Lin-Sca-1+c-Kit+ cells; 1 and 10 µM): no effect

NC(=O)c1ccc(-n2cccc2Cc2ccccc2O)cc1N[C@H]1CC[C@H](O)CC1
viability (MDA-MB-231; 25 µM, 72 h): > 95%

Fc1cccc(-n2cnc3c(NCc4nc5cc(Cl)ccc5[nH]4)nc(N4CCNCC4)nc32)c1
remaining binding (Casein kinase I isoform alpha-like (CSNK1A1L, Homo sapiens, UniProt Q8N752); KINOMEscan competition binding; 10 µM; baseline: control): 2.5%

O=C(Nc1cccnn1)N1CC(Oc2ccc(-c3ccccc3F)cn2)C1
time to steady state (measured: trough concentration; healthy humans; oral, repeated once-daily dosing): 2 to 3 days
